Assay results of several laboratories.
“And” joins repeats or separate records; there may be more than shown. ± marks the error that the study gave.
Spike glycoprotein: Spike glycoprotein (Severe acute respiratory syndrome coronavirus 2, UniProt P0DTC2)
rep main protease: Replicase polyprotein 1ab, main protease (rep, Severe acute respiratory syndrome coronavirus 2, UniProt P0DTD1)

| Molecule | target or system | test | test system | setting | how to read | quantity | value |
| --- | --- | --- | --- | --- | --- | --- | --- |
| KVTFFPDLNGDVVAI | human CD4 T cells | AIM | peptide | – | – | responding donors | 15% |
| CN(C)CCCN1c2ccccc2Sc2ccc(Cl)cc21 | A2780cis | cell growth or viability, neutral red | – | dark | – | IC50 | 112000 nM |
| COCCCNC(=O)C1CCN(Cc2cc3ccccc3n2Cc2cccc(Cl)c2)CC1 | SARS-CoV-2 | cytopathic effect | USA_WA1/2020 | retest, 8-point, duplicates | – | maximum response | 1.64% |
| CC(C)C[C@H]1[C@@H](c2ccccc2)OC(=O)N1CCCN1CCCCCC1.Cl | HeLa | Ebola VLP entry | – | – | – | maximal inhibition | 76% |
| ATSRTLSYYK | – | AIM | peptide, CD8+ T cells from PBMC, human donors | HLA-A*30:01 restricted, unit not given | reference: positive over tested donors | frequency of responding donors | 100 |
| Cc1cc(/C=C/C#N)cc(C)c1-n1cnc2cnc(Nc3ccc4cc(C#N)ccc4c3)nc21 | HIV-1 | viral replication, single-round infection | RT mutant V106A/L234I | – | – | EC50 | 79.1 ± 10.4 nM |
| YYQLYSTQL | – | AIM | peptide, CD8+ T cells from PBMC, human donors | – | reference: positive over tested donors | frequency of responding donors | 50% |
| Cc1noc2c(NC3CCOCC3)cc(-c3cccc(C(F)(F)F)c3)nc12 | SARS-CoV-2 | cytopathic effect, cell-based CPE | USA_WA1/2020 | round 1, 5-point dilution | – | AC50 | 15800 nM |
| Cc1cc(/C=C/C#N)cc(C)c1Nc1ccnc(Nc2ccc(C#N)cc2)n1 | HIV-1 | viral replication, single-round infection | RT mutant Y181I | – | – | EC50 | 8.8 ± 0.1 nM |
| CNC(=O)[C@@H](NC(=O)[C@H](CC(C)C)[C@H](O)C(=O)NO)C(C)(C)C | Daboia russelii venom proteases (SVMP) | protease activity, inhibitor | AP population | 0.01 µM, added: azocasein substrate | reference: venom alone | remaining activity | 100% and 96.9% and 98% |
| CCCN(CCC)CCNC(=O)c1cc(-c2ccc(Br)s2)nc2ccccc12 | SARS-CoV-2 | cytopathic effect | USA_WA1/2020 | round 2, 5-point | – | maximum response | 67.1% |
| CNc1ncccc1C(=O)N1CC(=O)N[C@@H](CC(C)C)c2nc(cs2)C(=O)N[C@@H](Cc2ccccc2)c2nc(C)nn2CC(=O)N[C@@H](C(C)C)C1 | Lassa mammarenavirus | viral replication | Huh-7 | 10 µM, 72 h | – | remaining activity | 103% |
| LNQLTGYKKPASREL | human CD4 T cells | AIM | peptide | – | – | responding donors | 8% |
| Cc1ccc(Nc2ccnc(N3CCCC3C(=O)NCCCc3ccccc3)n2)cc1 (stereo not shown) | SARS-CoV-2 | cytopathic effect | USA_WA1/2020 | round 1, 5-point | – | efficacy | 39.9% |
| LPNNTASWF | – | AIM | peptide, CD8+ T cells from PBMC, human donors | HLA-B*07:02 restricted, unit not given | reference: positive over tested donors | frequency of responding donors | 33 |
| Cc1ncccc1-c1nc2cc(C(=O)NCCCc3ccccc3)ccc2o1 | SARS-CoV-2 | cytopathic effect | USA_WA1/2020 | retest, 8-point, duplicates | – | maximum response | 38.2% |
| C[C@@H]1[C@H](O)[C@@H](C)/C=C/C=C/CC/C=C/C=C/C=C/C=C/C(O[C@H]2O[C@H](C)[C@@H](O)[C@H](N)[C@@H]2O)CC2O[C@](O)(CC(O)C(O)CCC(O)CC(O)CC(O)CC(=O)O[C@H]1C)CC(O)C2C(=O)O (stereo partly shown) | Spike glycoprotein | binding, biolayer interferometry | – | – | – | Kd | 25400 nM |
| Cn1c(Cn2ccc(C(F)(F)F)c(Oc3cc(Cl)cc(C#N)c3)c2=O)n[nH]c1=O | HIV-1 | viral replication, single-round infection | RT mutant K101P/V179I | – | – | EC50 | 1.5 ± 0.4 nM |
| O=C1O[C@H]2[C@@H]3OC(=O)c4cc(O)c(O)c(O)c4-c4c(cc(O)c(O)c4O)C(=O)OC[C@H]2O[C@@H](OC(=O)c2cc(O)c(O)c(O)c2)[C@@H]3OC(=O)c2cc(O)c(O)c3c2[C@@H]2C1=CC(=O)[C@](O)(O3)C2(O)O | Spike glycoprotein | binding, BLI | – | – | – | Kd | 2030 nM |
| Cc1cc(/C=C/C#N)cc(C)c1-n1cnc2cnc(Nc3ccc(/C=C/C#N)cc3)nc21 | HIV-1 | viral replication, single-round infection | RT mutant L234I | – | – | EC50 | < 2.3 nM |
| insulin human | – | measured: ACHE mRNA | uninfected mouse, brain | i.p., dose not given | reference: PBS | fold change | 0.99 |
| NLVIGFLFLTWICLL | human CD4 T cells | AIM | peptide | – | – | responding donors | 7% |

| Molecule | target or system | test | test system | setting | how to read | quantity | value |
| --- | --- | --- | --- | --- | --- | --- | --- |
| COP(=O)(OC)OC=C(Cl)Cl | rat CYP2D | bufuralol 1'-hydroxylation | liver microsomes | concentration not given | – | Vmax | 0.81 ± 0.06 nmol/min/mg protein |
| O=[N+]([O-])c1ccc(S(=O)(=O)N2CCN(c3ccnc4cc(Cl)ccc34)CC2)c([N+](=O)[O-])c1 | rep main protease | viral replication, Gluc reporter | SARS-CoV-2 | 20 µM | – | inhibition | -3.77% |
| Cc1nc2n(n1)CC(=O)N[C@@H](C(C)C)CNCC(=O)N[C@@H](CC(C)C)c1nc(cs1)C(=O)N[C@H]2Cc1ccccc1 | Lassa mammarenavirus | viral replication | Huh-7 | 10 µM, 72 h | – | remaining activity | 91% |
| Cc1cn([C@H]2C[C@H](N=[N+]=[N-])[C@@H](CO)O2)c(=O)[nH]c1=O | HIV-1 | viral replication | human PBMC, group O BCF02, CCR5-tropic clinical isolate | – | – | EC50 | 6.59 ± 1.26 nM |
| CC[C@H](C)[C@H](NC(=O)[C@H](CC(C)C)NC(=O)[C@H](Cc1c[nH]c2ccccc12)NC(=O)[C@H](CCC(N)=O)NC(=O)[C@@H](NC(=O)[C@H](Cc1ccccc1)NC(=O)[C@H](C)NC(=O)[C@H](CCCCNC(=O)COCCOCCNC(=O)COCCOCCNC(=O)CC[C@H](NC(=O)CCCCCCCCCCCCCCCCCCC(=O)O)C(=O)O)NC(=O)[C@H](CCC(N)=O)NC(=O)[C@H](C)NC(=O)[C@@H](NC(=O)[C@H](CCCCN)NC(=O)[C@H](CC(=O)O)NC(=O)[C@H](CC(C)C)NC(=O)C(C)(C)NC(=O)[C@@H](NC(=O)[C@H](CO)NC(=O)[C@H](Cc1ccc(O)cc1)NC(=O)[C@H](CC(=O)O)NC(=O)[C@H](CO)NC(=O)[C@@H](NC(=O)[C@H](Cc1ccccc1)NC(=O)[C@@H](NC(=O)CNC(=O)[C@H](CCC(=O)O)NC(=O)C(C)(C)NC(=O)[C@@H](N)Cc1ccc(O)cc1)[C@@H](C)O)[C@@H](C)O)[C@@H](C)CC)[C@@H](C)CC)C(C)C)C(=O)N[C@@H](C)C(=O)NCC(=O)NCC(=O)N1CCC[C@H]1C(=O)N[C@@H](CO)C(=O)N[C@@H](CO)C(=O)NCC(=O)N[C@@H](C)C(=O)N1CCC[C@H]1C(=O)N1CCC[C@H]1C(=O)N1CCC[C@H]1C(=O)N[C@@H](CO)C(N)=O | – | measured: treatment-emergent back pain | healthy subjects | 4.5 mg, multiple ascending dose | – | subjects with adverse event | 0% |
| c1ccc(-c2ncn(CCCc3cccnc3)c2C2CC2)cc1 | Lassa mammarenavirus | viral replication | Huh-7 | 10 µM, 72 h | – | remaining activity | 33% |
| NC(=O)CCNC(=O)c1ccccc1S | HIV-1 | viral replication | human PBMC, subtype D 92UG024, CXCR4-tropic clinical isolate | – | – | EC50 | 2130 ± 40 nM |
| [H]/N=C(/N)c1ccc(NCc2nc3cc(C(=O)N(CCC(=O)O)c4ccccn4)ccc3n2C)cc1 | rep main protease | reporter gene (mKate2), inhibitor | – | 20 µM | – | inhibition | -0.698% |
| Cc1ccc(Nc2ccnc(N3CCC(C(=O)NCCCc4ccccc4)CC3)n2)cc1 | SARS-CoV-2 | cytopathic effect | USA_WA1/2020 | round 2, 5-point | – | efficacy | 54% |
| COc1ccc(C[C@@H]2NC(=O)[C@@H](NC(=O)c3ccc(S(C)(=O)=O)cc3)Cc3ccc(cc3)OC[C@H](CC(C)C)NC(=O)CN(CC3CC3)C(=O)[C@@H](C)NC2=O)cc1 | Lassa mammarenavirus | viral replication | Huh-7 | 10 µM, 72 h | – | remaining activity | 52% |
| FPQSAPHGV | – | AIM | peptide, CD8+ T cells from PBMC, human donors | HLA-B*07:02 restricted, unit not given | reference: positive over tested donors | frequency of responding donors | 40 |
| COc1ccc(OC)c(-n2ccnc2-c2cccc(O)c2)c1 | Lassa mammarenavirus | viral replication | Huh-7 | 10 µM, 72 h | – | remaining activity | 42% |
| Nc1ncnc2c([C@@H]3N[C@H](CO)[C@@H](O)[C@H]3O)c[nH]c12 | Zaire ebolavirus | antibody staining | human macrophages | 12.5 µM | – | antigen-positive cells | 65.2% |
| AQYTSALLAGTITSG | human CD4 T cells | AIM | peptide | – | – | responding donors | 9% |
| CCc1c(C(=O)C(N)=O)c2c(OCC(=O)O)cccc2n1Cc1ccccc1 | C2C12 | – | – | 1 µM, added: GA venom | reference: venom alone | viability difference | 7.99% |
| CC[C@H](C)[C@H](NC(=O)[C@H](Cc1ccc(O)cc1)NC(=O)[C@H](Cc1c[nH]c2ccccc12)NC(=O)[C@H](CC(C)C)NC(C)=O)C(=O)N[C@@H](CCCCN)C(N)=O | – | DSC | SOPC/cholesterol 7/3 bilayers | 5 mol%, pH 7.40 | – | transition enthalpy | 1 kcal/mol |
| Cn1cnc(Cn2c(=O)[nH]/c(=N\c3cc4cn(C)nc4cc3Cl)n(Cc3cc(F)c(F)cc3F)c2=O)n1 | – | – | human, all renal function groups | oral, 375 mg, decreased GFR TEAE, Moderate severity | – | patients with adverse event | 3.1% |
| CCCCSCCCNC(=O)C1CCN(Cc2nc(-c3ccc(CC)cc3)oc2C)CC1 | SARS-CoV-2 | cytopathic effect, cell-based CPE | USA_WA1/2020 | round 2, 5-point dilution | – | AC50 | 12600 nM |
| Cc1cc(/C=C/C#N)cc(C)c1Nc1ncc2ncn(-c3c(C)cc(/C=C/C#N)cc3C)c2n1 | HIV-1 | viral replication, single-round infection | RT mutant V106A | – | – | EC50 | 58.8 ± 6 nM |
| CCCN1CCN(CCCNC(=O)c2cc3c(Cl)nc4ccccc4c3s2)CC1 | SARS-CoV-2 | cytopathic effect, cell-based CPE | USA_WA1/2020 | round 2, 5-point dilution | – | efficacy | 82% |
| CSc1nnc(CC2CCN(Cc3cc(C(C)(C)C)[nH]n3)CC2)n1C | Lassa mammarenavirus | viral replication | Huh-7 | 10 µM, 72 h | – | remaining activity | 30% |

Some of these lines once more:
| Molecule | target or system | test | test system | setting | how to read | quantity | value |
| --- | --- | --- | --- | --- | --- | --- | --- |
| CC[C@H](C)[C@H](NC(=O)[C@H](CC(C)C)NC(=O)[C@H](Cc1c[nH]c2ccccc12)NC(=O)[C@H](CCC(N)=O)NC(=O)[C@@H](NC(=O)[C@H](Cc1ccccc1)NC(=O)[C@H](C)NC(=O)[C@H](CCCCNC(=O)COCCOCCNC(=O)COCCOCCNC(=O)CC[C@H](NC(=O)CCCCCCCCCCCCCCCCCCC(=O)O)C(=O)O)NC(=O)[C@H](CCC(N)=O)NC(=O)[C@H](C)NC(=O)[C@@H](NC(=O)[C@H](CCCCN)NC(=O)[C@H](CC(=O)O)NC(=O)[C@H](CC(C)C)NC(=O)C(C)(C)NC(=O)[C@@H](NC(=O)[C@H](CO)NC(=O)[C@H](Cc1ccc(O)cc1)NC(=O)[C@H](CC(=O)O)NC(=O)[C@H](CO)NC(=O)[C@@H](NC(=O)[C@H](Cc1ccccc1)NC(=O)[C@@H](NC(=O)CNC(=O)[C@H](CCC(=O)O)NC(=O)C(C)(C)NC(=O)[C@@H](N)Cc1ccc(O)cc1)[C@@H](C)O)[C@@H](C)O)[C@@H](C)CC)[C@@H](C)CC)C(C)C)C(=O)N[C@@H](C)C(=O)NCC(=O)NCC(=O)N1CCC[C@H]1C(=O)N[C@@H](CO)C(=O)N[C@@H](CO)C(=O)NCC(=O)N[C@@H](C)C(=O)N1CCC[C@H]1C(=O)N1CCC[C@H]1C(=O)N1CCC[C@H]1C(=O)N[C@@H](CO)C(N)=O | – | measured: treatment-emergent back pain | healthy subjects | 4.5 mg, multiple ascending dose | – | subjects with adverse event | 0% |
| LNQLTGYKKPASREL | human CD4 T cells | AIM | peptide | – | – | responding donors | 8% |
| LPNNTASWF | – | AIM | peptide, CD8+ T cells from PBMC, human donors | HLA-B*07:02 restricted, unit not given | reference: positive over tested donors | frequency of responding donors | 33 |
| c1ccc(-c2ncn(CCCc3cccnc3)c2C2CC2)cc1 | Lassa mammarenavirus | viral replication | Huh-7 | 10 µM, 72 h | – | remaining activity | 33% |
| Cc1cn([C@H]2C[C@H](N=[N+]=[N-])[C@@H](CO)O2)c(=O)[nH]c1=O | HIV-1 | viral replication | human PBMC, group O BCF02, CCR5-tropic clinical isolate | – | – | EC50 | 6.59 ± 1.26 nM |
| YYQLYSTQL | – | AIM | peptide, CD8+ T cells from PBMC, human donors | – | reference: positive over tested donors | frequency of responding donors | 50% |
| CCc1c(C(=O)C(N)=O)c2c(OCC(=O)O)cccc2n1Cc1ccccc1 | C2C12 | – | – | 1 µM, added: GA venom | reference: venom alone | viability difference | 7.99% |
